Measurements of several laboratories.
Each numbered part is a random draw from the data of one study; scales do not carry over between parts. Positions count from the first letter of the parent shown.

Study 1
Substitution: K168Q
Target: ABI1, truncated, D143A, DHFR fusion (Arabidopsis thaliana)
Method: DHFR PCA, deep sequencing
Medium: yeast
Setting: methotrexate growth selection, single substitutions
Baseline: wild-type fitted maximum
Reading: higher = stronger binding
Endpoint: relative binding score
Starting sequence: PYL1, truncated, DHFR fusion (Arabidopsis thaliana); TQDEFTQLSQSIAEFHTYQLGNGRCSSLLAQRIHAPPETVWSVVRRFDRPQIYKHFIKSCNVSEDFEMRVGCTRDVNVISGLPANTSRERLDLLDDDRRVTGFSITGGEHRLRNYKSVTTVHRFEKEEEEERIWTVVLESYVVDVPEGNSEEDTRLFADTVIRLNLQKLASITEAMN; partner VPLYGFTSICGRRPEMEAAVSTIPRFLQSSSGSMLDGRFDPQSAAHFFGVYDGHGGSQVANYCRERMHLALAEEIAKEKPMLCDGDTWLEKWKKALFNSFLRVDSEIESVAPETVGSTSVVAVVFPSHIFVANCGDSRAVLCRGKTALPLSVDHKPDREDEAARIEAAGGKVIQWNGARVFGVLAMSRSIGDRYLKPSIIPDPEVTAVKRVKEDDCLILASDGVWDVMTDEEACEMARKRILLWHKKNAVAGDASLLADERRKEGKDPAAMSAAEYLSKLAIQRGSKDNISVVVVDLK
added: (+)-ABA 0.0091 µM: 6.44%
added: (+)-ABA 0.39 µM: 33.9%
added: (+)-ABA 710 µM: 104%
added: (+)-ABA 0.11 µM: 20.4%
added: (+)-ABA 58 µM: 83.9%
added: (+)-ABA 4.8 µM: 62.9%

Study 2
Target: Histone acetyltransferase KAT6A, winged helix 1, GST fusion (KAT6A, Homo sapiens, UniProt Q92794, residues 1-85)
Method: protein binding microarray
Molecule type: double-stranded DNA, one strand shown
Medium: in vitro
Tested at: not given
Setting: 8-mer, flanks averaged, mean of 2 arrays, mostly near background
Baseline: not given
Reading: higher = stronger binding
Endpoint: E-score
Target sequence (chain): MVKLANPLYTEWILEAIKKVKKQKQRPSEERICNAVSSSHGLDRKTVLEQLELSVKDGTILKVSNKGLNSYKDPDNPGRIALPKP
CCGGGGAA: 0.263
AACTTTAG: -0.0591
CACCTTTA: -0.123
AACGGGCA: 0.134
ACAAATGA: -0.27
GAATTCAC: -0.179
ATCAGCTG: -0.103
AGTTGCCC: 0.0143

Study 3
Target: Prothrombin, mature alpha-thrombin (F2, Homo sapiens, UniProt P00734)
Method: aptamer microarray, sandwich
Molecule type: DNA with 2'F-ANA
Medium: in vitro
Tested at: 200 nM
Setting: whole 15-mer aptamer, many near background
Added: Cy3 exosite-II aptamer, 400 nM
Reading: higher = stronger binding
Endpoint: mean fluorescence intensity
Sequence: GGTTGGTGTGGTTGG
2'F-ANA at 1 2 5 6 8 9 10 11 13: 53.9 a.u.
2'F-ANA at 2 6 8 9: 370 a.u.
2'F-ANA at 3 4 7 11 15: 638 a.u.
2'F-ANA at 2 4 6 7 9 10 11 14 15: 61.4 a.u.
2'F-ANA at 2 4 5 9 14: 42.4 a.u.
2'F-ANA at 3 4 5 6 7 8 9 11 15: 81.3 a.u.
2'F-ANA at 1 2 4 5 8 9 11 13 15: 49.2 a.u.
2'F-ANA at 1 4 5 8 13 15: 49.4 a.u.

Mixed results
COC(=O)C1(NC(=O)c2ccc(CN3CC(C)OC(C)C3)cc2)CCS(=O)(=O)CC1 (centres unmarked) — remaining compound (mouse, microsomes or S9; 2 µM, 0.5 h): 98.1%

For quick reference, copied from above (study 1):
added: (+)-ABA 0.0091 µM: 6.44%
added: (+)-ABA 0.39 µM: 33.9%
added: (+)-ABA 710 µM: 104%
added: (+)-ABA 0.11 µM: 20.4%
